Assay results collected from several papers.
Every numbered part comes from another study and shows a few of its results, in no order.

Study 1
Target: PABPC1L2, full length, GST fusion (mouse, UniProt A0ABA7IW68)
Method: RNAcompete
Molecule type: RNA
Matrix: in vitro
Concentration: 20 nM
Setting: 7-mer, probes averaged, single round
Relative to: mean of 7-mers
Direction: higher = stronger binding
Quantity: 7-mer Z-score
Construct (chain): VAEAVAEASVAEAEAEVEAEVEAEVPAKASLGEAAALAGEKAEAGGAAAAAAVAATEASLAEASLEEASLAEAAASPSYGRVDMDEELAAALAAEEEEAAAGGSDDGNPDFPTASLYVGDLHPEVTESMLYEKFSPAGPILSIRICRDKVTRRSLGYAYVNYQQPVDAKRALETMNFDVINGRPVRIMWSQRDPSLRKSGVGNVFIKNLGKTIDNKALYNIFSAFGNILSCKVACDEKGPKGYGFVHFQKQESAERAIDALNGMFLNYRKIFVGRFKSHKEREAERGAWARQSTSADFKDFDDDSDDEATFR
CUACAUC: -0.273
CAUACCU: -0.309
CCGACGA: -0.119
UUUGGGA: -0.104

Study 2
Target: Histone acetyltransferase KAT6A, winged helix 1, GST fusion (KAT6A, Homo sapiens, UniProt Q92794, residues 1-85)
Method: protein binding microarray
Molecule type: double-stranded DNA, one strand shown
Matrix: in vitro
Concentration: not given
Setting: 8-mer, flanks averaged, mean of 2 arrays, mostly near background
Relative to: not given
Direction: higher = stronger binding
Quantity: E-score
Construct (chain): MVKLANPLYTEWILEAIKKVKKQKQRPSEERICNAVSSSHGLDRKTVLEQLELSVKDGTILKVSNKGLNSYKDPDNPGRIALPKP
AGATTTCG: 0.0491
TAATAATA: -0.0585
CCTCGACC: -0.125
CTAAGAAG: -0.177
CCTATGCC: 0.0485

Study 3
Target: RNA binding protein fox-1 homolog 2, RRM domain, GST-SBP tag (RBFOX2, Homo sapiens, UniProt O43251-10, residues 100-194)
Method: RNA Bind-n-Seq
Molecule type: RNA
Matrix: in vitro
Concentration: 365 nM
Setting: natural RNA segment, single round, ends assumed
Relative to: no-protein control
Direction: higher = stronger binding
Quantity: RBNS enrichment (R)
Constant ends, left off below: GGGAGUUCUACAGUCCGACGAUC … UGGAAUUCUCGGGUGCCAA
Construct (chain): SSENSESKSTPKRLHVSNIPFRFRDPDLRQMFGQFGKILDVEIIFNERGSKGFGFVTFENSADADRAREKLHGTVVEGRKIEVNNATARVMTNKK
AACUUCCCAGCACCUGGACAUCUCUUCCAGAGUUAUCCCACUGGCUUGGUGUGUAUACAUUAGGGGAGGAUAAUCUGAUGCUAACUUUUUUUUUCUCUUUGGUUCUUGAA: 0.686
GUUAUGUUUCAGAUUUUCAAAUUUAUUUAUACGUGUUAUAAUGAAUGCUUCUAUUUAAAGGGGAAAUAUUUCUACAUGUGCAUAUAGUUUUCCAAGAGUGUACCAUUAAC: 0.917
GCUUGCCGUCUGGGAUGCUCAGUAGAGUCAAGGGACCCAGCAGAGAUGCAUGAGACAAGAUGGAUUGCGAGCAAUUAGUGGAUGUGUGCACUUUUUGUUCAGAGUUUAAG: 6.55
UAGAUAAGUGGGACGGUAAAGACAAAGGCGUGGAAGAGAAAGUCAGCGCUUCCUUCCUGGGAAGCCUGUCGUCUGGGUUAAUCUGUUGAUGUAUCUUCAUUGUCAUCUCU: 0.268
ACCUCCGAGUGCUUUGUCUCCACUCAGUACCUUGGAUCAGAGCUGCUGAGUUCAGGAUGCCUGCGUGUGGUUUAGGUGUUAGCCUUCUUACAUGGAUGUCAGGAGAGCUG: 0.297

Further values, each from its own experiment
PhoQ, residues 284 288 289 292 302 303 SMYGEC — fold induction (PhoP, residues 12 14 15 18 19 IFFTR (Escherichia coli, UniProt P23836); Sort-seq, measured: YFP reporter; E. coli; PhoQ-PhoP variant library, with: 10 µM Mg2+; relative to: high Mg2+ state, higher = stronger signaling): 13.2

Some of these lines once more (study 2):
CCTCGACC: -0.125
CTAAGAAG: -0.177
